Values quoted from earlier work, collected from citations in different studies.
Protocols differ between the studies behind these lines. ± marks the error that the study gave. ≈ marks a conversion by molar mass, not a printed value.
Sequence of UniProt P42336 (whole entry, unmodified, looked up): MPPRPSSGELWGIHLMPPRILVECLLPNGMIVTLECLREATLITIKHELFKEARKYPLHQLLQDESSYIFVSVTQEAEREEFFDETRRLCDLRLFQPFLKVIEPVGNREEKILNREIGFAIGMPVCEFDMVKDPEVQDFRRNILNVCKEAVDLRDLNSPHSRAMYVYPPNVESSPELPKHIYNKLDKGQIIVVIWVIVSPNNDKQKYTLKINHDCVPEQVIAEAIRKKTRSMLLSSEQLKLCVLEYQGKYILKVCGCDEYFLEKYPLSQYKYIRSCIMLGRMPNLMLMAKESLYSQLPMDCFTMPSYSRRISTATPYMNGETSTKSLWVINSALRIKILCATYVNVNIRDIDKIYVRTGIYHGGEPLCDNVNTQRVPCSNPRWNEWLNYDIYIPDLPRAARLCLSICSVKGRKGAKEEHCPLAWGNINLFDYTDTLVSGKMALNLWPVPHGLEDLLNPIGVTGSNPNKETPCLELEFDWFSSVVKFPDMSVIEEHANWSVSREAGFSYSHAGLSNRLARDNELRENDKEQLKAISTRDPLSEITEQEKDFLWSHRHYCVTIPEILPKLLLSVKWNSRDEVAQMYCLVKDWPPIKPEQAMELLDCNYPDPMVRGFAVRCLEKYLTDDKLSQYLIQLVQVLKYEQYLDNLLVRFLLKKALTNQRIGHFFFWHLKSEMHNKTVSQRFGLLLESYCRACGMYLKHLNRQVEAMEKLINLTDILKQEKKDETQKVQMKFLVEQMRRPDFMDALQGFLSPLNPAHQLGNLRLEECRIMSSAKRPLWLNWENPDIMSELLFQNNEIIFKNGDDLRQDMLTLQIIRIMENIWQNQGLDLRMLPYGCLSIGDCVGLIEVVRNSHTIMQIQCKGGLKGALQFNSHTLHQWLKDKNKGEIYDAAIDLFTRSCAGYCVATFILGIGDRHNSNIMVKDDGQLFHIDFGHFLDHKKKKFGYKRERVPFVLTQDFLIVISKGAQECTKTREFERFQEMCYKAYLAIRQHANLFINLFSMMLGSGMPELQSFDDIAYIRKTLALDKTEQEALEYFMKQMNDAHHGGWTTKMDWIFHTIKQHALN
Sequence of UniProt Q9Y2K2 (whole entry, looked up): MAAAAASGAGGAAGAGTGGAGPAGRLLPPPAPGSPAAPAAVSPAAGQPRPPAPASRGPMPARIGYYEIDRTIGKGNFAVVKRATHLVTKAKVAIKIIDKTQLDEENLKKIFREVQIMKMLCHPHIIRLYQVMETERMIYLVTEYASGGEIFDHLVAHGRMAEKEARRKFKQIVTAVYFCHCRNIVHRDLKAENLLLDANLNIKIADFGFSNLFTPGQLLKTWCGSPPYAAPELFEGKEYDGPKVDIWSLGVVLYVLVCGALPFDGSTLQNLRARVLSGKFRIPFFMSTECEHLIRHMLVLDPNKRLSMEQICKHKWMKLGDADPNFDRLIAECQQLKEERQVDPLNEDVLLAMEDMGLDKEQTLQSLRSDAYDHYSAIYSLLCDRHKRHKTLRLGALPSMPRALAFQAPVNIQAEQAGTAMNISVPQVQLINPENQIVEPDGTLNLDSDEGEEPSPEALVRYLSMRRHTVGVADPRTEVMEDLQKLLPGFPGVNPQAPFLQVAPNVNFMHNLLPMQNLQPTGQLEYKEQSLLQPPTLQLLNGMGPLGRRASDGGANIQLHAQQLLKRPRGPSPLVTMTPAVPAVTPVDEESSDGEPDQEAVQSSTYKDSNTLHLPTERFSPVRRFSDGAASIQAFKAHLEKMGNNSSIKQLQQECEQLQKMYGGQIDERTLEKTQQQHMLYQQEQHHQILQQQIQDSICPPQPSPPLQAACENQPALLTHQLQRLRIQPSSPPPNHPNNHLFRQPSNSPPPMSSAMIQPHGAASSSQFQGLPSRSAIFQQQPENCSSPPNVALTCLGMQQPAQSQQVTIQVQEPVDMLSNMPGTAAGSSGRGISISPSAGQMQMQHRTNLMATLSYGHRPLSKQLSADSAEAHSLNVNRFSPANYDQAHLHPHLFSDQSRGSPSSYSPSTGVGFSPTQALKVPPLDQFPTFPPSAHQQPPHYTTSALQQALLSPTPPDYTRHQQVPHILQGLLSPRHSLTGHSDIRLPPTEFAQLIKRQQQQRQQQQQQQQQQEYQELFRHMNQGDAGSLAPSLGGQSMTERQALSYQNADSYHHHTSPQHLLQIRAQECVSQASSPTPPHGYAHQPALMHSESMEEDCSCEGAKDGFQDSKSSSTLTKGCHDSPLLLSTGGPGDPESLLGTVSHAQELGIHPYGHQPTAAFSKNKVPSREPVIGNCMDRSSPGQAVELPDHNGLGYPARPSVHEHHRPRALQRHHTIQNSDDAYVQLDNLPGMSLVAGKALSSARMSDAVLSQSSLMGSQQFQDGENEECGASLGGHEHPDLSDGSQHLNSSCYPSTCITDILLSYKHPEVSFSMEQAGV

CCCCC(C)C(=O)O (stereo not drawn) — EC10 (scoliosis or lordosis; zebrafish embryo; nominal concentration): 383 µM
c1ccc2c(c1)ccc1ccccc12 — Vmax (metabolism, substrate; human liver microsomes): 304 pmol/min/mg
CN(C)C(=N)N=C(N)N — rate constant k13 (healthy human subjects): 0.0874 min⁻¹
C=C1[C@H](CO)[C@@H](O)C[C@@H]1n1cnc2c(=O)[nH]c(N)nc21 — oral bioavailability (rat): 80%
CC(C)c1nc(-c2cccc(NS(=O)(=O)c3c(F)cccc3F)c2F)c(-c2ccnc(N)n2)s1 — metabolite to parent ratio (human; dose not given, dabrafenib monotherapy; baseline: metabolite over dabrafenib): ~70%
C=CC(=O)NC1CCN(c2ncc3ncnc(Nc4ccc(Oc5ccc6c(c5)ncn6C)c(C)c4)c3n2)CC1 — treatment discontinuation due to TRAEs (human patients; oral, 120 mg once daily): 3%
CCC(C)n1ncn(-c2ccc(N3CCN(c4ccc(OCC5COC(Cn6cncn6)(c6ccc(Cl)cc6Cl)O5)cc4)CC3)cc2)c1=O (stereo not drawn) — activity outcome (HepG2; mitochondrial membrane potential; concentration not given, Tox21): inactive
Cc1cc(-c2nccc3c2ccn3CC(=O)Nc2ccc(-c3cnccn3)cn2)ccn1 — Ctrough at efficacious dose relative to IC50 (mouse and rat, bleomycin-induced pulmonary fibrosis; 25 mg/kg mouse, 10 mg/kg rat): ~0.5
NC(=O)N1c2ccccc2CC(=O)c2ccccc21 — clearance (non-compartmental analysis; healthy adults): ~175 L/h
O=C(/C=C/c1cccc(S(=O)(=O)Nc2ccccc2)c1)NO — activity outcome (HepG2; mitochondrial membrane potential; concentration not given, Tox21): inactive
Cn1cncc1[C@@](N)(c1ccc(Cl)cc1)c1ccc2c(c1)c(-c1cccc(Cl)c1)cc(=O)n2C — Tmax (adult patients): 3 h
Cc1ccsc1C(=CCCN1CCC[C@@H](C(=O)O)C1)c1sccc1C — protective index (mouse; i.p., corneal kindling model): 20
CC1(C)S[C@@H]2[C@H](NC(=O)[C@H](N)c3ccccc3)C(=O)N2[C@H]1C(=O)O — MIC (Pseudomonas aeruginosa; clinical isolate RKI-No_40/14): > 16 µg/mL
CO[C@@H](C)Cn1c(=O)n(C)c2cnc3ccc(-c4cncc(C(C)(C)O)c4)cc3c21 — patients with related adverse event (measured: grade ≥3 fatigue; cancer patients; dose not given, monotherapy): 6.3%
Nc1cc(C(F)(F)F)c(-c2nc(N3CCOCC3)nc(N3CCOCC3)n2)cn1 — remaining activity (Serine/threonine-protein kinase SIK3 (SIK3, Homo sapiens, UniProt Q9Y2K2); enzyme activity; 10 µM; baseline: untreated): 84%
CN(C)C(=O)c1cc2cnc(Nc3ccc(N4CCNCC4)cn3)nc2n1C1CCCC1 — adverse event incidence (measured: cough; advanced solid tumour or lymphoma patients; dose not given, continuous dosing; baseline: patients): 21.1%
C[C@H]1COCCN1c1nc(-c2cnc(N)cc2C(F)F)nc(N2CCOCC2)n1 — GI50 (T24): 0.593 µM
CNCc1cn(S(=O)(=O)c2cccc(F)c2)c(-c2ccc(F)cc2F)c1OC — IC50 (CYP3A; enzyme activity): 11.7 µM
C=CC(=O)N1CCC([C@@H]2CCNc3c(C(N)=O)c(-c4ccc(Oc5ccccc5)cc4)nn32)CC1 — AUC(0-8h) (human patients; oral, 40 mg once daily, day 8): 339 ± 125 ng·h/mL
CN[C@@H](C)C(=O)N[C@H]1CN(S(=O)(=O)c2cccc(S(=O)(=O)N3CC[C@H]4CC[C@@H](C(=O)NC(c5ccccc5)c5ccccc5)N4C(=O)[C@@H](NC(=O)[C@H](C)NC)C3)c2)CC[C@H]2CC[C@@H](C(=O)NC(c3ccccc3)c3ccccc3)N2C1=O — terminal half-life (cynomolgus monkey; dose not given): 0.81 to 5.04 h
C=CC(=O)N1CCC(C(=O)NCC(=O)N2CCN(c3nc(-c4cnc(N)nc4C(F)F)nc(N4CCOCC4)n3)CC2)CC1 — remaining activity (Phosphatidylinositol 4,5-bisphosphate 3-kinase catalytic subunit alpha isoform (PIK3CA, Homo sapiens, UniProt P42336, E542K); kinase activity; 1 µM): 0%
COc1ccc([C@@H]2Sc3ccccc3N(CCN(C)C)C(=O)[C@@H]2OC(C)=O)cc1 — plasma clearance (rat): 52.5 mL/min/kg
COc1cc2c(Oc3ccc4[nH]c(C)cc4c3F)ccnc2cc1OCC1(N)CC1 — time of highest tissue concentration (mouse; oral, dose not given): 4 h
Cc1c(C#N)cccc1[C@@H](C)Nc1nnc(C)c2cnc(N3CCOCC3)cc12 — IC50 (NCI-H1838; 3D cell viability; 14 d): 0.0501 ± 0.0249 µM
O=C(O)CN1CCN(CC(=O)O)CCN(CC(=O)O)CCN(CC(=O)O)CC1 — protonation constant (log) (pH-potentiometry, measured: logK5H; 0.15 M NaClO4; 25 °C): 2.05
N#CCNC(=O)c1ccc(-c2ccnc(Nc3ccc(N4CCOCC4)cc3)n2)cc1 — AUC(0-inf) decrease (moderate renal impairment; dose not given): 13%
Nc1nc(=O)n([C@@H]2C=C[C@H](CO)O2)cc1F — oral bioavailability (dog): 50%
COc1ccnc(C[S+]([O-])c2nc3ccc(OC(F)F)cc3[nH]2)c1OC (stereo not drawn) — apparent clearance reduction (obese children; dose not given; baseline: non-obese children): 50%
N=C(N)NCCC[C@H](NC(=O)[C@H](CCCNC(=N)N)NC(=O)[C@H](CCCCN)NC(=O)[C@H](CCC(N)=O)NC(=O)[C@H](CCCCN)NC(=O)[C@H](Cc1ccc(O)cc1)NC(=O)[C@@H](N)CCCCN)C(=O)N[C@@H](CO)C(=O)N[C@@H](Cc1ccc(O)cc1)C(=O)N[C@@H](CCCCN)C(=O)O — NOAEL (rat; intravenous, dose not given, repeated-dose toxicity): 1200 µg/kg/day
CNC(C)C1CCC(N)C(OC2C(N)CC(N)C(OC3OCC(C)(O)C(NC)C3O)C2O)O1 (stereo not drawn) — MIC (Pseudomonas aeruginosa; clinical isolate RKI-No_25/14): 8 µg/mL (≈ 16.8 µM)
